Experimental data from different studies.
Numbered parts are unrelated; each lists some results of a single study.

Set 1
Target: Sal-like protein 4, full length isoform B (SALL4, Homo sapiens, UniProt Q9UJQ4-2, residues 1-616)
Technique: universal PBM
Form: double-stranded DNA, one strand shown
Sample: in vitro
Concentration: not given
Notes: 8-mer, flanks averaged, mean of replicates
Reading: higher = stronger binding
Endpoint: E-score
Construct (chain): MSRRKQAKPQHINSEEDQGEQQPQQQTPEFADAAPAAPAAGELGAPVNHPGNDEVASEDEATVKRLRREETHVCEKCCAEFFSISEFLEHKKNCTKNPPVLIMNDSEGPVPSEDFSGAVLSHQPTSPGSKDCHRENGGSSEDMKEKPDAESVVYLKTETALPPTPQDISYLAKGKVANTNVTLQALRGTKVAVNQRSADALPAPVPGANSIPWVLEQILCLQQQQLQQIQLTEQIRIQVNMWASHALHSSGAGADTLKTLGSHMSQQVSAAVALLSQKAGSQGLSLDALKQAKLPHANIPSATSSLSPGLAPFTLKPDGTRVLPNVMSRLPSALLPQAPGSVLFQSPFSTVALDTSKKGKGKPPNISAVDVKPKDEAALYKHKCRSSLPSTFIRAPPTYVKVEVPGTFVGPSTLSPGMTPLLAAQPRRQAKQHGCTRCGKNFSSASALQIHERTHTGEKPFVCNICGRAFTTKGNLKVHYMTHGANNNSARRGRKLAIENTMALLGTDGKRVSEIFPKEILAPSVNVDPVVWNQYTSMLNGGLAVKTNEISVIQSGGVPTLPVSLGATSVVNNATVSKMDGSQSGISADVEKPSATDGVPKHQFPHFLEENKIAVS
AGATCTTC: -0.0341
CCTAAAAC: 0.0519
GACATTGA: 0.0139
CGACCGAA: -0.18
CTTGATCC: -0.0876
GCGGTCGA: -0.136
AGTCCGCG: -0.192
ACCGGATG: -0.154
ACGCCGGC: -0.326
ATTTAATG: 0.277
AATCGGAC: -0.13
ACTAAGGG: -0.0963
ATAAAGTG: 0.259
GGAACGAA: -0.0301
GCGATCGC: -0.193
GATGGCGC: -0.272
ACTTGTCC: 0.00582
GACTATGC: -0.0289
TCCCGAGA: -0.201
ATGTCGCA: 0.0213
ACGAGACT: 0.0286
GTGTGATA: 0.253

Set 2
Target: RNA binding protein fox-1 homolog 2, RRM domain, GST-SBP tag (RBFOX2, Homo sapiens, UniProt O43251-10, residues 100-194)
Technique: RNA Bind-n-Seq
Form: RNA
Sample: in vitro
Concentration: 365 nM
Notes: natural RNA segment, single round, ends assumed
Baseline: no-protein control
Reading: higher = stronger binding
Endpoint: RBNS enrichment (R)
Shared flanks, not repeated: GGGAGUUCUACAGUCCGACGAUC … UGGAAUUCUCGGGUGCCAA
Target sequence (chain): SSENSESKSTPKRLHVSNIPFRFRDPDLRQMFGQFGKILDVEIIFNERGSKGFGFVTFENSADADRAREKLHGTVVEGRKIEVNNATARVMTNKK
GUGGCUUCAGGAUCGGGUGUACUGUUCUCAUAACCUUGGGAGGAGAAAGAGAAAGAGAGCGGCUGCUGUAGGGACAGCUCUCUGCCUCUCCUCUCCUGGCUCUACCAGUA: 0.451
GAUUAUCAUCUUAAGAGAUGCUUAAACAUGGUAAAUCACUUCAUAUUAUGAAAGUUUUACACUUAGUAUUCAUGUUAACAUUGGGUGCAAUAACUUAGUAGUACUUGCUU: 0.242
AGCCAGGCUGGUCUUGAACUCCUGACCUUGGGUGAUCCACCUGCCUCAGCCUCCCAAAGUGCUGGGAUUACAGGCGUGAGCUAUCCCGCCCGGUCCCCUUUUCUUUAUUA: 0.2
UACUCAGAUUGACCAUAUGGGUUUUUUCUUUUUCUUUCUUUUAUUCUUCUCCUUCUUUUUUUUUCAGAGGUGGGAUGGGUGGAGAUUUUUUAAAAAUCCCACGUGUGAAA: 0.422
AAUAUAGCAGCAUCGUUUCCUUUUUCAGUGAAAUUUCAACCAUAAGUAGAAAAGAAUUGUUUACUAUUUGACCCACAUAUUAAACAUGCUUUUUUUCUCUAUUAUGGCAA: 1.11
UGGUUUUGAUUUUCUUUUUGUUUUUCUUUCUUCUUCUUAUUUUUUUCAUUUGAGUCUUAGCUCCCAUUUAAGUUAUGCUUCUGACCUUGUAUGGUCUGUAAGCUUGCCCA: 1.26
UUUGUGAACUUCUCAAGCACGCACUCCCGUUUCCCUCUGCUUUGCAGAGGUUUUGAUGUAUCCCUGCCGUCUGCAAGAGUCCAGAGGCUGGACUGACAGUAGGAAGUAGA: 1.85
UUGCCAGAACAUGUCUUGGUACCUUGUGAAAGCAGGCUGCCCUUGUUCUUGAGAUAGACUUUAAAAUGAACCAGCUCUGAAAAGUACUUCUGCUGCUCUGGUCUAUCCCU: 0.226
AGGUCAGCCGAGUAUGGUAGUGCACACCUGUAAUCCUGGCACUCAGGAGACUGAGGCAAGAGCCUCGUAGCAUUAGCUGCAUAGCAAGUUUGAAACCAGUCUGCACUACA: 0.398
CCCAAUGGGGAGCCUCCAGCCACAAGUUCCCUGUCCUUAUCAGCCACUGGGUGGUUCCCACUGCAUGACCCUCUAUCCCUGCCAUCUGUCCCCAUGGUUUCCAGCUCAAU: 3.58
UGAUGCCCAUGGGAGGUGGCAUUUGCUUUGGGCAGAGCAGCCUACAGGAAACAUUUCUCUUGUAAUUUAAGAAAGUUAAGUCUAUAAACCAGCAUCAAGUGAUGUCUAGC: 0.553
CCUUGGCCUCCUCGGCGUGCAACCUGGGCAAGCACCUCGGCGUGCACCAUGGAGCCGAAGCCCAGAGACCCUGUCUCAGGCCUACGCAACAGCCACGAAAUAUUCUGAAG: 0.36

Set 3
Target: Ras GTPase-activating protein-binding protein 1, full length (G3BP1, Homo sapiens, UniProt Q13283)
Chain of UniProt Q13283 (whole entry, looked up): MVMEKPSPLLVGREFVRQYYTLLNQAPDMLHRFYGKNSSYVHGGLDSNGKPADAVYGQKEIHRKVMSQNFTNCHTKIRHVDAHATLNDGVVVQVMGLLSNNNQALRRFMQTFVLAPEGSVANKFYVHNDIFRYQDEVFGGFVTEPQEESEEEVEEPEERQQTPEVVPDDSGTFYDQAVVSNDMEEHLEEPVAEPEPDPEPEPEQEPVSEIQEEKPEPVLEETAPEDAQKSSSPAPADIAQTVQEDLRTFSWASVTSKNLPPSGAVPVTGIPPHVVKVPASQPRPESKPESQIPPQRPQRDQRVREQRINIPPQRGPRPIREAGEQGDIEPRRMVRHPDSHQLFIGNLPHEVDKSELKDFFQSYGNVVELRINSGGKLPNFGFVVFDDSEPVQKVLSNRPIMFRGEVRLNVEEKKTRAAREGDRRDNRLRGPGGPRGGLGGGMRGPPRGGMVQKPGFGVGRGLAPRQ
Technique: RNA Bind-n-Seq
Form: RNA
Sample: in vitro
Concentration: 200 nM
Notes: whole 134-nt RNA, ends assumed
Together with: 150 mM KCl
Baseline: input library
Reading: higher = stronger binding
Endpoint: log2 enrichment
Shared flanks, not repeated: GGGAGUUCUACAGUCCGACGAUC … UGGAAUUCUCGGGUGUCAAGG
UGGCCCUGCUGGCAUGCGGGGAGGAAGAGGUGGCCUCAUGGAUCGUGGUGGUCCCGGUGGAAUGUUCAGAGGUGGCCGUGGUGGAGACAG: -0.075
GCAGGAAGUAAAAACAUAUGGAAAUGCUUCGGAUAGUGGCAGGGGUGGGGGUUGCUAAGGAAAGGGUGGGAUGGGAGUGGGUAAAGAGUU: 1.11
AGUCCUGUGCUACACAUCGUAUGUACCGAAUCGGCCCCGGGGCCCCGGGGCCCCGGGGAAAGUAUUAUGUUACGCCGUUCGGAUCUGCAC: -0.833
CAAGUCCUGUGCUACACAUCGUAUGUACCGAAUCGGGUGGGAAAGGGUUUUUGGGAAAGUAUUAUGUUACGCCGUUCGGAUCUGCACUUC: 0.407
AGUCCUGUGCUACACAUCGUAUGUACCGAAUCGGGAAAAGGGGAAAAGGGAAAAGGGGAAAGUAUUAUGUUACGCCGUUCGGAUCUGCAC: 0.204
CCUGUGCUACACAUCGUAUGUACCGAAUCGGGGAAAAAAGGGGAAAAAAGGGAAAAAAGGGAAAGUAUUAUGUUACGCCGUUCGGAUCUG: -0.28
AAGUCCUGUGCUACACAUCGUAUGUACCGAAUCGGUUUGGUUUUUUUGGUUUUUGGAAAGUAUUAUGUUACGCCGUUCGGAUCUGCACUU: -1.3
UUGUAUUAAGACAACGCUCCUCGACUUAGAUGCCUUGGCAAGACAUUUGGCUGACUGUAUUCGAAGGUAAAAUUUGAUGUGAAAUUGACA: -0.0644
UGCACUGACUGGUGGUGUCAACCCAUGGCUCAACUGGAAGCACUGUGGAAGAAGAUGGAGGGUGUGGUAAGUCCAUCAGACCUGGGACCG: -0.642
CUCAAGUCCUGUGCUACACAUCGUAUGUACCGAAUCGGGUUUGGUUUGGUUUGGAAAGUAUUAUGUUACGCCGUUCGGAUCUGCACUUCC: -0.422
GCAGGAAGUAAAAACAAAUGGAAAUGCUUCGGAUAGUGGCAGGGGUGGGUGUUGCUAAGGAAAGGGUGGGAUGGGAGUGGGUAAAGAGUU: 0.838
AGUCCUGUGCUACACAUCGUAUGUACCGAAUCAAAUUUUUUUAAACCCAAACCCAAAAAAGUAUUAUGUUACGCCGUUCGGAUCUGCACU: -0.574
UUGACAUGAAGACAAUGGAGACUGCAGAGAAACUGGCUAGAUUUGUUGCUCAGGUGGGACCAGAGAUCGAACAAUUCAGCAUAGAAAACA: -0.917
UGGGAGGUGGAUUUUGGUUAUUUUUUUAGCUCAUUUCCAGGGGUGGGAAUUUUUUUUUAAUAUGUGUCAUGAAUAAAGUUGUUUUUGAAA: 0.15

Set 4
Target: Histone acetyltransferase KAT6A, winged helix 2, GST fusion (KAT6A, Homo sapiens, UniProt Q92794, residues 85-181)
Technique: protein binding microarray
Form: double-stranded DNA, one strand shown
Sample: in vitro
Concentration: not given
Notes: 8-mer, flanks averaged, mean of 2 arrays, mostly near background
Baseline: not given
Reading: higher = stronger binding
Endpoint: E-score
Residues (chain): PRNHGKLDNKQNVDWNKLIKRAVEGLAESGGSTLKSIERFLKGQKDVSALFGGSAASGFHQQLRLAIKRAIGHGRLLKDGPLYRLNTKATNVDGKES
GGTCCTGA: 0.102
CCCTTGCG: -0.0836
GACCTCAA: 0.00743
CTAAAAAC: 0.0327
CTAAATGA: 0.0102
TGGCAACA: 0.0118
CAGCGGTC: -0.0881
GTGGTCCA: 0.0548
GAACGTAA: -0.142
GCCCTGCC: 0.106
ACGGAAAG: -0.0691
GGACAACC: -0.0419
GCGTGGAC: -0.0109
CCCGAGGG: 0.204
ACCGGAAA: -0.0619
AACGAAAC: 0.0103
CTCCTCGA: -0.0632
TGACATCA: -0.0794
ATAAAGCA: 0.0212
AATTAATA: 0.254
AGCCATTA: 0.0278
GGAGAGCA: -0.041
AAGGCGTA: -0.0598
CGCCATGA: -0.0505
AACGGTCC: -0.1

Set 5
Target: RING finger protein unkempt homolog, zinc fingers 1-6, SBP tag (UNK, Homo sapiens, UniProt Q9C0B0, residues 30-357)
Chain of UniProt Q9C0B0 (30-357, looked up): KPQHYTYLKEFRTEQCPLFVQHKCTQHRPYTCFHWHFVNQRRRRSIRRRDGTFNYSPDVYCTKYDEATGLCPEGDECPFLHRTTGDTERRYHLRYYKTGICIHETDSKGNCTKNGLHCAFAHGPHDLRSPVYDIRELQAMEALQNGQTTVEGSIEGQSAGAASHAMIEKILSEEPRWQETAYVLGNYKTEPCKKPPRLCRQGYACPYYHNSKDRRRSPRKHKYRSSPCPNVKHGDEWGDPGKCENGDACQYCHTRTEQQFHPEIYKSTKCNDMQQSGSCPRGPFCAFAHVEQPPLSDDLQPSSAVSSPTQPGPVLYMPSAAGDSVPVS
Technique: RNA Bind-n-Seq
Form: RNA
Sample: in vitro
Concentration: 100 nM
Notes: RNA with constant flanks, vertebrate orthologous sites, ends assumed
Baseline: input RNA pool
Reading: higher = stronger binding
Endpoint: bound/input enrichment
Shared flanks, not repeated: GGGAGUUCUACAGUCCGACGAUC … CAACAGAGGAUUGAGCAUCA
UGAGCGUUGGAAGACCAGCAUAUGAGGUUGUGGUCAAAAAGUAGGAGCAGCUGGGGAAAGAAGUUACAAAUAUCAAUCGCCAUGUGGCUAAAAGGUGGAGACGAAGAUCAUCGAAACUCA: 0.498 ratio
UAUUUUCUUAUUUUAGGUAUCAUUGCCCAGUGCCCAAGAUCUUUUAUGUUCAGCUGACUGUAGGAAAUAAUGAAUUUUUUGGGGAAGGAAAGACUCGACAAGCUGCUAGACACAAUGCUG: 1.62 ratio
GAGGGUCUGCUGACCACUCACUGUUAUGUCCAGAUAUCUGUAAACCCUUUUUGUUCUUAGUCUUUUUCUUGUAUAAUGGAUGUUCUCUAAAAUUGUUAAUGUAUCACAGGGCUGAUGUUU: 1.58 ratio
AAAUGGCUUCUGUUCUAGUAAGAAAAGUAAAUAUUGUCCUCUAAAUAUAAAACUCCUAAAUGGCUAUUUUUGAAAUUGAAAUAUUUGAAUAUCGUAAAUCAGCUGUUGCCACUUCACAAC: 0.551 ratio
AAAUUCCCCCAUUGUCACUGAGAACCACCAAAUCUGACUUUUACAUUUGGUCUCAGAAUUUAGGUUCCUGCCCUGUUUUGUUUUUUUUGUUUUUUUGUUUUUUGUUUUUUUUUUUAAACA: 1.81 ratio
CGUCCUUACCUACUGCCCCCGGCCAGGGCCAAGGGCCAGAUGUCUCACUGAGGACCUGCUUUUAAAACAUUUUUUAAGUCGUUGUACAGGAAGAGGUGUGUCUAAAGAGCAUCUCAAGGU: 0.506 ratio
CCACGAUAAACAACUCAGGGCAGUAUUCUCGAUAUCCUUACAGUAAUCUAAAUCAGGGAUUAGUUAACAAUACAGGGAUGAAUCAAAAUUUAGGCCUUACGAAUAACACUCCAAUGAAUC: 1.19 ratio
AAUUUUCUUAUUAUAGGUAUCAUUGCCCAAUGCCCAAGAUAUUUUAUGUUCAGCUGACUGUAGGAAAUAAUGAGUUUUUUGGGGAAGGGAAGACCCGACAAGCUGCUAGACACAAUGCUG: 1.51 ratio
AAUAGUUUUAAGCUUGUUUGCACAGCUUUUAUUUUCCAUUGGAAAUGGAAUCCAUUGCCUUAGGUCUUUUUAAAUAGUGUAUUGUUAUCGUUGGGCUGGCUCUACGCUUGAAAUCCAGUU: 1.84 ratio
CAGCAGAUUCUCUCAUAGGGAGAGCUGCACACAUUGCUGUUCUUGAUUCAGAAAUAUUUUUAGAAAAAUUCUUUCUUGUUGCUGCCCUAAAAUAUUUUCAGUAGAGAAAAGCAUUGUCAG: 0.295 ratio
UCCCCAUUACCCCUAAAGUAGAACAUUUUUUAAAUUGUGUUGCCACCACUUUUAAAAAUUUAGCAAUAUUAGAAUAGGAUACCAGUGAAGUAAGAAAUUUUGCUUGUUGUUUUGCAAACC: 5.04 ratio
